Measured values from different studies.
Lines come from different studies, so protocols differ. “And” joins repeats or separate records; there may be more than shown. ± gives the spread as reported.
lasR: Transcriptional activator protein LasR (lasR, Pseudomonas aeruginosa, UniProt P25084)
Sequence of UniProt P25084 (whole entry, looked up): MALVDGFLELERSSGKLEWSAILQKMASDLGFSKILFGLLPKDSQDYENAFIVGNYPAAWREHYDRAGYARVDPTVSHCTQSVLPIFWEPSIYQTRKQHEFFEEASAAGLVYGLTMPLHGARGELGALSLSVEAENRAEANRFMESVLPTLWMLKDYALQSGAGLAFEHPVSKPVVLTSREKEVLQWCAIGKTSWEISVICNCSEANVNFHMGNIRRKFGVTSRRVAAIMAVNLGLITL
sdiA: Regulatory protein SdiA (sdiA, Escherichia coli, UniProt P07026)
Sequence of UniProt P07026 (whole entry, looked up): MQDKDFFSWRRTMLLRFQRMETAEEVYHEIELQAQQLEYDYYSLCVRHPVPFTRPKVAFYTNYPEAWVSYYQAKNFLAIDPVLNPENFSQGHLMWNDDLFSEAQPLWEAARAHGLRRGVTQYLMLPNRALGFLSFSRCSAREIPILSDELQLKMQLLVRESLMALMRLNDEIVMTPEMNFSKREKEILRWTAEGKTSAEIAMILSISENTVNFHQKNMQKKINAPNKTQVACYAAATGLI
Oprm1: Mu-type opioid receptor (Oprm1, Rattus norvegicus, UniProt P33535)
Sequence of UniProt P33535 (whole entry, looked up): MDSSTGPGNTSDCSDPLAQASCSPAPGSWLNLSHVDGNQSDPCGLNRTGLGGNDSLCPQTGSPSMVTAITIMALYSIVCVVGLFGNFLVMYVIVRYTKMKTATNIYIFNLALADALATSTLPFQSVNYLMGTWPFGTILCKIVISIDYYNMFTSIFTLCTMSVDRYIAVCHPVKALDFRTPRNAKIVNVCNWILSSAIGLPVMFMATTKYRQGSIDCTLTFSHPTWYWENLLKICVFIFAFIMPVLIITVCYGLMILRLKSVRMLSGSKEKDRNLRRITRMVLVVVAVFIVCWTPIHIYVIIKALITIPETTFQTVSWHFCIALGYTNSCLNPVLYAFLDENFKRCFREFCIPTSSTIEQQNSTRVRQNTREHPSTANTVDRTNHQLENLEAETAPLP
Uncharacterized hydrolase SAUSA300_2518: Uncharacterized hydrolase SAUSA300_2518 (Staphylococcus aureus, UniProt Q2FDS6)
Sequence of UniProt Q2FDS6 (whole entry, looked up): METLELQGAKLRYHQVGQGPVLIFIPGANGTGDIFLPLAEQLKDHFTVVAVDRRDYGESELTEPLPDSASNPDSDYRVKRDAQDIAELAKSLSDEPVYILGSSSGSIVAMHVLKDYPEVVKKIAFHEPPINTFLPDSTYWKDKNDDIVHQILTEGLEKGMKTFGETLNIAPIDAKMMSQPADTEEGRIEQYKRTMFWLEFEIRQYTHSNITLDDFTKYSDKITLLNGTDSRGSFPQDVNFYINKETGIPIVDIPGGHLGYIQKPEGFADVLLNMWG
KEAP1: Kelch-like ECH-associated protein 1 (KEAP1, Homo sapiens, UniProt Q14145)
Sequence of UniProt Q91V12 (whole entry, looked up): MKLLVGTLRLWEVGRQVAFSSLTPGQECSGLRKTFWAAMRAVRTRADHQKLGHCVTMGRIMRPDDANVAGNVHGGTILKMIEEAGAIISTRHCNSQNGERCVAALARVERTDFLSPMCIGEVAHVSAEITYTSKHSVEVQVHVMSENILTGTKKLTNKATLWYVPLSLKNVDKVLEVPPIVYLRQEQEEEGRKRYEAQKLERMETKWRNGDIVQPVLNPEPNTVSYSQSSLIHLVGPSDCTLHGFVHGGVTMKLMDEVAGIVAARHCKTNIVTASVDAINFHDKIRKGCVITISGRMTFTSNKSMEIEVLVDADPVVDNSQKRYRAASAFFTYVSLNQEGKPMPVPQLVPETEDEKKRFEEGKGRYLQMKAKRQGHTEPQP
Sequence of UniProt Q14145 (whole entry, looked up): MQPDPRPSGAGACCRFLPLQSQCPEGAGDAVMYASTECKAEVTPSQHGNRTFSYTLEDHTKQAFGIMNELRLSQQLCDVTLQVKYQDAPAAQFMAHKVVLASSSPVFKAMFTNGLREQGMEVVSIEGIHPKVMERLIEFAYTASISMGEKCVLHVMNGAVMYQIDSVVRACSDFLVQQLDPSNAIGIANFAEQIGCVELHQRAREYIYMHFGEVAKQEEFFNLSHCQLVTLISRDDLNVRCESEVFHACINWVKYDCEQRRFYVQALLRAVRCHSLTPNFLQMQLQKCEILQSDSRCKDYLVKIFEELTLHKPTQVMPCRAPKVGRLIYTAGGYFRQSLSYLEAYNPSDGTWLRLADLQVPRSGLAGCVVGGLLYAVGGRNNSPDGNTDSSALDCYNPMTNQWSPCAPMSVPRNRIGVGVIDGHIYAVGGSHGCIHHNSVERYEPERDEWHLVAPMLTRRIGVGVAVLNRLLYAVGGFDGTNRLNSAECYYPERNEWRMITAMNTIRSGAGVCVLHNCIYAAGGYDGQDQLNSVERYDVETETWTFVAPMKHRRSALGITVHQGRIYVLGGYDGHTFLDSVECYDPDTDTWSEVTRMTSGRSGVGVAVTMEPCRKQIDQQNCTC
Sequence of UniProt Q9UM07 (whole entry, looked up): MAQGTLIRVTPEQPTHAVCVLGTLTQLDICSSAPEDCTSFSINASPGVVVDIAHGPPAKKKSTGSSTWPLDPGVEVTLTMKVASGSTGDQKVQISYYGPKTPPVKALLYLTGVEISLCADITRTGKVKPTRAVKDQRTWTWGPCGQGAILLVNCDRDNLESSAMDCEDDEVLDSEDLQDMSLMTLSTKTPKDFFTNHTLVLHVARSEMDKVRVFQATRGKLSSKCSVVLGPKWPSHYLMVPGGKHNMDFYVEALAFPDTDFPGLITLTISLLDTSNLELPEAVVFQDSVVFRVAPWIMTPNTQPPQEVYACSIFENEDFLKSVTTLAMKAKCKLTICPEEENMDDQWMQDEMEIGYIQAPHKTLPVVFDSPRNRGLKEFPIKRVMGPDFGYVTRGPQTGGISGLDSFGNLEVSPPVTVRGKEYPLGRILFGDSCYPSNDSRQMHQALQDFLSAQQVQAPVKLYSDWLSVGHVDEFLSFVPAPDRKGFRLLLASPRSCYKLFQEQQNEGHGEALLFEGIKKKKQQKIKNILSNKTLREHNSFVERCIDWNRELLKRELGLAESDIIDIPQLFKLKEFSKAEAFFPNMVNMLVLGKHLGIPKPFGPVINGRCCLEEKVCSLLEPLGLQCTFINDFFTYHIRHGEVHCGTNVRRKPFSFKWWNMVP
Sequence of UniProt Q05513 (whole entry, looked up): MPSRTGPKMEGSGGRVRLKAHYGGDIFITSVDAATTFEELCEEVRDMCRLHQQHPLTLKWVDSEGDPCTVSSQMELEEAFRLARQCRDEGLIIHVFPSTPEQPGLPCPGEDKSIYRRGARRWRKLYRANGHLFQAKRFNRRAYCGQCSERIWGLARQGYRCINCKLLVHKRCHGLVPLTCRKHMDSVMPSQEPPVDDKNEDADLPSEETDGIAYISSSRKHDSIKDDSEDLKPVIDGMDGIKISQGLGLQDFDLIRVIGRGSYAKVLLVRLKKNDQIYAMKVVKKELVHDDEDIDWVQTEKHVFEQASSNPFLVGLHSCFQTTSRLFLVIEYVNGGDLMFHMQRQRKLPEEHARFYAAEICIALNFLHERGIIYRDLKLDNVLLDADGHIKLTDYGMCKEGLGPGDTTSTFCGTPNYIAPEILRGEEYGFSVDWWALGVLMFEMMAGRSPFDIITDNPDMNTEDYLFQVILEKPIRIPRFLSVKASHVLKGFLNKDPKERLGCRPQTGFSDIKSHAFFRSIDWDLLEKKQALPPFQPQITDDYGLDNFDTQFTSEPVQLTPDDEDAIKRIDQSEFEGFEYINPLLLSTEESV
Sequence of UniProt Q96SW2 (whole entry, looked up): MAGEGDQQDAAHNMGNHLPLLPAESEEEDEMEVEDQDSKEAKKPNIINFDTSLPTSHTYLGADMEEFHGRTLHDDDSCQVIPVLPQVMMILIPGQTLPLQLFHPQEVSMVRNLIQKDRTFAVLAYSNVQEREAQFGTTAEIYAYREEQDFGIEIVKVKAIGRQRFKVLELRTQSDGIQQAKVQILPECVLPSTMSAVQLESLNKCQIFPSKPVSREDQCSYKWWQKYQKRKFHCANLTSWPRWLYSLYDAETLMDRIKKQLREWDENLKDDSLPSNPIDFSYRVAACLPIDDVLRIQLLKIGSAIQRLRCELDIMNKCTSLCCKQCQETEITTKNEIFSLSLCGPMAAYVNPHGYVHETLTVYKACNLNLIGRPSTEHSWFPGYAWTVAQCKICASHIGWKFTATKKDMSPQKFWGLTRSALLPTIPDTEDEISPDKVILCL
Sequence of UniProt O60674 (whole entry, looked up): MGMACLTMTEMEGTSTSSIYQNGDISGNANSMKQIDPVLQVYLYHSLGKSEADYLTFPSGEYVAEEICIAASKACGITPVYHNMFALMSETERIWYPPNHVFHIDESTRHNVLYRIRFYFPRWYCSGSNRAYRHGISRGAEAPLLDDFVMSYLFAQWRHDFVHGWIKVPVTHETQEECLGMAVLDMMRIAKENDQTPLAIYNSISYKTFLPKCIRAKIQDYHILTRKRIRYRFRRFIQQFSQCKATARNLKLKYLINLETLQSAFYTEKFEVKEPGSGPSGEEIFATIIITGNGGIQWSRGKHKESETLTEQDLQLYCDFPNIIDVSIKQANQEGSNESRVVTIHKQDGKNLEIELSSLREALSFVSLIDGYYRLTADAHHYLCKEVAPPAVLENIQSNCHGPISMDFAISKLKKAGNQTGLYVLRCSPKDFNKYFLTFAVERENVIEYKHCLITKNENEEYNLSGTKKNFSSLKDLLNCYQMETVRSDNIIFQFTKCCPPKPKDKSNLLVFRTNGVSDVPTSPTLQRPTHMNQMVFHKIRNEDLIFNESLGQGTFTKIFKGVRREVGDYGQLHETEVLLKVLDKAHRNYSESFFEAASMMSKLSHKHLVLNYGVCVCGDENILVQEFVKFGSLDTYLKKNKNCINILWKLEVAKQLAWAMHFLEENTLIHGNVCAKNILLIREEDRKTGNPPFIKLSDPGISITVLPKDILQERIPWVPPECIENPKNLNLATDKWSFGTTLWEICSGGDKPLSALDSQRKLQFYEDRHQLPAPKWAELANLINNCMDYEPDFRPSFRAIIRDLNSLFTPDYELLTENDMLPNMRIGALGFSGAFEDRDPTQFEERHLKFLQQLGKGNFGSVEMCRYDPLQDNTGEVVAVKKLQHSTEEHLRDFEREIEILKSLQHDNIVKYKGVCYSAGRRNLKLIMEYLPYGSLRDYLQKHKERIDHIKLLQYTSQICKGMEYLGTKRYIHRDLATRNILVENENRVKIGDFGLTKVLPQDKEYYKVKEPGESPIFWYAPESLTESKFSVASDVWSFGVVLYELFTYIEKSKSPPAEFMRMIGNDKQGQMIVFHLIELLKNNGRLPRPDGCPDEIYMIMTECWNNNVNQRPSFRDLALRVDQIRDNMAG

| SMILES | target | assay | system | setting | how to read | endpoint | value |
| --- | --- | --- | --- | --- | --- | --- | --- |
| C[C@H](NCc1ccc(-c2ccc(C(F)(F)F)cc2)cc1)C(N)=O | PDGFRA (Homo sapiens, UniProt P16234) | cell-free assay, competition with immobilised ligand | – | 1 µM | – | inhibition | 6% |
| COc1ccccc1-c1n[nH]c2nc(N[C@H]3CC[C@H](NS(=O)(=O)CC(C)C)CC3)ncc12 | protein kinase LINJ.30.1580 | bead competition pull-down | Leishmania extract | 10 µM | baseline: vehicle | relative captured amount | 0.11 |
| CSCC[C@@H]1NC(=O)[C@H](Cc2ccccc2)NC(=O)[C@H](CS)NC(=O)[C@H](C(C)C)NC(=O)[C@H](Cc2ccccc2)NC1=O | Histidine kinase AgrC (Listeria monocytogenes, UniProt A8E0G3) | reporter gene, agonist, agr GFP reporter | – | – | baseline: native 6-mer AIP | EC50 ratio | > 60 fold |
| C=CC(=O)NC[C@H](NC(=O)[C@H](CC1CCCCC1)NC(=O)[C@H](CCC(N)=O)NC(C)=O)C(=O)N[C@@H](CC(C)C)C(=O)N[C@@H](Cc1ccccc1)C(=O)O | Beta sliding clamp (Escherichia coli, UniProt P0A988) | isothermal titration calorimetry | – | pH 7.4, 37 °C | – | ΔH | -15 kcal/mol |
| O=C(Nc1ccccc1NC(=O)c1cccc(Cl)c1)c1cccc(Cl)c1 | lasR | reporter gene, antagonist | – | – | baseline: IC50 PAO-JP2 over E. coli JLD271 | potency ratio | 1 |
| CCCCCCCCCCCCCC(=O)CC(=O)N[C@H]1CCOC1=O | sdiA | – | – | – | – | Emax | 64.3% |
| CCCCCCC(=O)N[C@H]1CCOC1=O | lasR | reporter gene, agonist | Escherichia coli JLD271 | 10 µM, pSC11 and pJN105L plasmids | baseline: OdDHL at same concentration | agonist activity | 3% |
| C#CCCCCOc1ccc2c(c1)CCCN2C(=O)CCl | MAP2K7 (Homo sapiens, UniProt O14733) | mass spectrometry profiling | H460 cell lysate | 100 µM over 10 µM, UniProt O14733 | baseline: high over low concentration | reactivity ratio | 1.47 |
| OC[C@H]1CNCCN1C[C@@H]1CCCN1C[C@@H](Cc1ccc2ccccc2c1)N1CCN(CCCC2CCCC2)[C@H](Cc2ccc(O)cc2)C1 | Oprm1 | radioligand binding | rat brain membranes | 500 nM, pH 7.5, 25 °C, together with: 0.87 nM [3H]DAMGO | – | remaining binding | 97.7 ± 5.81% |
| O=C(O)c1cccc(CP(=O)(O)O)n1 | blaNDM-1 (Klebsiella pneumoniae, UniProt C7C422) | enzyme activity, inhibitor | – | together with: nitrocefin | – | kon | 51700 ± 10000 M⁻¹ s⁻¹ |
| CCCCC1CNCCN1CC1CCCN1CC(Cc1ccc2ccccc2c1)N1CCN(CCCC2CCCC2)C(C(C)O)C1 (centres unmarked) | Oprm1 | radioligand binding | rat brain membranes | 500 nM, pH 7.5, 25 °C, together with: 0.87 nM [3H]DAMGO | – | remaining binding | 103 ± 5.78% |
| CCCCC/C=C\C/C=C\C/C=C\C/C=C\CCCC(=O)NCCc1ccc(O)c(O)c1 | Trpv1 (Mus musculus, UniProt Q704Y3) | ion current, agonist, whole-cell patch clamp | HEK293 | – | baseline: 3 mM 2-APB current | maximal open probability | 0.83 ± 0.05 |
| O=C(CCc1ccc(C(F)(F)F)cc1)N[C@H]1CCOC1=O | lasR | plasI-LVAgfp reporter, agonist | – | – | baseline: pump-active over pump-mutant | EC50 ratio | 16 |
| Cc1ccc(OS(=O)(=O)F)c(C(=O)Nc2ccncc2)c1 | Uncharacterized hydrolase SAUSA300_2518 | enzyme activity, inhibitor, fluorogenic substrate | – | 0.1 µM | – | remaining activity | 90.1% and 86.3% and 83.3% |
| N[C@H](C(=O)N1CCCC1)C1CCN(c2nccc3c(-c4ncc(Cl)cc4Cl)cccc23)CC1 | PADI4 (Homo sapiens, UniProt Q9UM07) | enzyme activity | – | 0.2458 µM, high-affinity site, together with: Ca2+ 1.5 mM | – | kcat | 1.57 s⁻¹ and 1.63 s⁻¹ |
| CS(C)(=O)=Nc1ccc(-c2ccc(-c3nc4cc(O[C@@H]5CO[C@H]6[C@@H]5OC[C@H]6O)[nH]c4cc3F)cc2)cc1 | NEK11 (Homo sapiens, UniProt Q8NG66) | enzyme activity, inhibitor | – | 10 µM | – | inhibition | -6% |

| SMILES | target | assay | system | setting | how to read | endpoint | value |
| --- | --- | --- | --- | --- | --- | --- | --- |
| O=C1NC(=O)c2c1c1cc(F)c[n+]3c1c1c2c2cc(O)ccc2[n]1[Ru-4]312([N]=C=S)[S+]3CC[S+]1CC[S+]2CC3 (centres unmarked) | FLT4 (Homo sapiens, UniProt P35916) | enzyme activity | – | 100 nM, human enzyme, together with: 10 µM ATP | baseline: untreated | remaining activity | 42% |
| [CH3][Ti+2][O]C(=O)c1ccc([S][Au][PH](c2ccccc2)(c2ccccc2)c2ccccc2)cc1.c1cc[cH-]c1.c1cc[cH-]c1 | PRKCZ (Homo sapiens, UniProt Q05513) | kinase activity, HotSpot radiometric | – | 1 µM, together with: ATP 10 µM | baseline: vehicle | remaining activity | 108% and 106% |
| C[C@@H](O)[C@@H]1CN([C@@H](CC2CCCCC2)CN2CCC[C@H]2CN2CCNC[C@@H]2CO)CCN1CCC12CC3CC(CC(C3)C1)C2 | Oprm1 | radioligand binding | rat brain membranes | 500 nM, pH 7.5, 25 °C, together with: 0.87 nM [3H]DAMGO | – | remaining binding | 107 ± 10.6% |
| CC(C)[C@@H]1NC(=O)[C@H](CCC(=O)O)NC(=O)CNC(=O)[C@H]([C@@H](C)O)NC(=O)[C@H](CCC(=O)O)NC(=O)[C@H](CCC(=O)O)NC(=O)[C@H](CC(=O)O)NC(=O)[C@H](C(C)C)NC(=O)[C@H]([C@@H](C)O)NC(=O)CNC(=O)[C@H](CC(=O)O)NC(=O)[C@H](CC(N)=O)NC(=O)[C@H](Cc2ccc(O)cc2)NC1=O | KEAP1 | Keap1-Nrf2 binding, inhibitor, competitive FP | – | 0.0244 µM, 30 min, together with: Nrf2 peptide probe | lower = stronger inhibition | fluorescence polarization | 1.08 a.u. and 1.01 a.u. |
| CN(C)[C@H]1C[C@@]23CC[C@@]4(O2)C(=CC[C@]2(C)[C@@H](c5ccc6ccncc6c5)CC[C@H]24)C=C3[C@@H](O)[C@@H]1O | NEK7 (Homo sapiens, UniProt Q8TDX7) | ATP probe labelling, inhibitor, KiNativ profiling | – | 0.1 µM | – | inhibition | 8.8% |
| CC(C)CC(O)(CC(C)C)c1cn(C(=O)N2CCCC2)nn1 | GPI inositol-deacylase (Pgap1, Mus musculus, UniProt Q3UUQ7) | probe labelling, inhibitor, measured: Pgap1 | mouse, brain | i.p., 0.8 mg/kg, 4 h, protein level | baseline: treated over vehicle mice, lower = stronger inhibition | activity ratio-of-ratios | 1.25 |
| CCCCCC(=O)CC(=O)N[C@H]1CCOC1=O | lasR | reporter gene, antagonist | – | – | baseline: IC50 PAO-JP2 over E. coli JLD271 | potency ratio | 71 |
| O=C(N1CCCCC1)n1ccnn1 | Cytosolic acyl coenzyme A thioester hydrolase (Acot7, Mus musculus, UniProt Q91V12) | probe labelling, inhibitor, competitive ABPP-SILAC, measured: Acot7 | mouse T cells | concentration not given, 4 h, in situ, single peptide | baseline: treated over DMSO, lower = more inhibition | SILAC ratio | 1.49 and 1.44 and 1.6 and 1.57 and 1.53 |
| CN(/N=C/c1ccccc1C(=O)O)c1nc(-c2ccccc2Cl)cs1 | JAK2 (Homo sapiens, UniProt O60674) | kinase activity | – | 1 µM, mean | – | inhibition | 0.19% |
| COc1cc2c(cc1S(=O)(=O)F)C(=O)NCCC2 | Uncharacterized hydrolase SAUSA300_2518 | enzyme activity, inhibitor, fluorogenic substrate | – | 0.05 µM | – | remaining activity | 92.4% and 94.4% and 93.9% |
| O=C(Cc1cccc(C(F)(F)F)c1)N[C@H]1CCOC1=O | sdiA | – | – | – | – | Emax | 94.9% |
| COc1ccccc1-c1n[nH]c2nc(NC3CCN(C(=O)Cc4ccc(F)cc4F)CC3)ncc12 | Leishmania donovani kinase LINJ.30.1580 | bead binding competition | Leishmania donovani extract | 10 µM | baseline: vehicle | relative abundance | 0.4 |
| Cc1ccc(NC(=O)CCc2cccc(NC3=CC(=O)N(C4CCC(=O)NC4=O)C3=O)c2)cc1Cl (centres unmarked) | Cereblon/Casein kinase I alpha (CSNK1A1/CRBN, Homo sapiens, UniProt P48729+Q96SW2) | degrader, quantitative proteomics, measured: protein abundance | human regulatory T cells | 1 µM, 4 h | baseline: DMSO | log2 fold change | -1.11 |
| CC(C)C[C@@H]1NC(=O)[C@H](C(C)C)NC(=O)[C@H](CCC(=O)O)NC(=O)CNC(=O)[C@H]([C@@H](C)O)NC(=O)[C@H](CCC(=O)O)NC(=O)[C@H](CCC(=O)O)NC(=O)[C@H](CC(=O)O)NC(=O)[C@H](C(C)C)NC(=O)[C@H]([C@@H](C)O)NC(=O)CNC(=O)[C@H](CC(=O)O)NC(=O)[C@@H]2CCCN2C1=O | KEAP1 | Keap1-Nrf2 binding, inhibitor, competitive FP | – | 25 µM, 30 min, together with: Nrf2 peptide probe | lower = stronger inhibition | fluorescence polarization | 0.189 a.u. and -0.0547 a.u. |
| CC(C)[C@H]1NC(=O)C[C@H]2/C=C/CCSSC[C@@H](NC1=O)C(=O)N[C@H](Cc1cccc3ccccc13)C(=O)NCC(=O)O2 | TSSK2 (Homo sapiens, UniProt Q96PF2) | enzyme activity, inhibitor | – | 10 µM | – | inhibition | 0.3% |
| O=C(N[C@@H]1c2ccccc2C[C@H]1N1CCCC1)c1ccc(-c2ccnc3[nH]ccc23)nc1 | NUAK2 (Homo sapiens, UniProt Q9H093) | binding, competition with immobilised ligand | – | 3 µM | – | remaining binding | 2.1% |

Some of these lines once more:
| SMILES | target | assay | system | setting | how to read | endpoint | value |
| --- | --- | --- | --- | --- | --- | --- | --- |
| CN(/N=C/c1ccccc1C(=O)O)c1nc(-c2ccccc2Cl)cs1 | JAK2 (Homo sapiens, UniProt O60674) | kinase activity | – | 1 µM, mean | – | inhibition | 0.19% |
| COc1cc2c(cc1S(=O)(=O)F)C(=O)NCCC2 | Uncharacterized hydrolase SAUSA300_2518 | enzyme activity, inhibitor, fluorogenic substrate | – | 0.05 µM | – | remaining activity | 92.4% and 94.4% and 93.9% |
| O=C(Cc1cccc(C(F)(F)F)c1)N[C@H]1CCOC1=O | sdiA | – | – | – | – | Emax | 94.9% |
